Published values from different studies.
Parts stem from different laboratories: compare values within a part only.

Series 1
Target: Interferon regulatory factor 7, full length, phosphomimetic (IRF7, Homo sapiens, UniProt Q92985, residues 1-503, S471D/S472D/S475D/S476D/S477D/S483D/S484D/S487D)
Technique: protein-binding microarray
Molecule type: double-stranded DNA, one strand shown
Sample: in vitro
Concentration: 2200 nM top
Notes: 60-bp whole probe
Added: salmon DNA 0.4 mg/ml
Baseline: random background probes
Direction: higher = stronger binding
Measurement: fitted relative affinity
Construct (chain): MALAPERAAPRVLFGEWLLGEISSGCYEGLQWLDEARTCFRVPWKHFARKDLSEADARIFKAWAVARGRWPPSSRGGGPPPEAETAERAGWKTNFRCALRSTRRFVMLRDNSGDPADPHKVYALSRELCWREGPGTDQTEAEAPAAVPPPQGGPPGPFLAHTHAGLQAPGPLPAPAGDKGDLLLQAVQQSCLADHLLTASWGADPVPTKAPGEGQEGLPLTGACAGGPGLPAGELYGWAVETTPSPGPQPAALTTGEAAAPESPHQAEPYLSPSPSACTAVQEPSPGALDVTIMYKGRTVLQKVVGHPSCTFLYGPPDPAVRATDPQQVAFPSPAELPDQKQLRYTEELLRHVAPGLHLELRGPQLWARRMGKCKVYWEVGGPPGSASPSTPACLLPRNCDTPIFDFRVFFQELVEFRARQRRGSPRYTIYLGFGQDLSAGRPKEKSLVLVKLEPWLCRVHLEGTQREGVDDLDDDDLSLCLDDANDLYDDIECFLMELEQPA
Sequence = GCCTAGCACGGCGATATCAGTTTCGAGACGTGCTAGGTCTTGATTCGCTTGACGCTGCTG; result = 3.16 z-score
Sequence = GCCTAGCACGGGTTTTTTAGGCAGACAGCGTGCTAGGTCTTGATTCGCTTGACGCTGCTG; result = 0.0429 z-score
Sequence = GCCTAGCACGTAGATCTCAGTATCGATTAGTGCTAGGTCTTGATTCGCTTGACGCTGCTG; result = 0.333 z-score
Sequence = GCCTAGCACTTAAGTATCGACTATCGGTTAGTGCTAGTCTTGATTCGCTTGACGCTGCTG; result = 0.46 z-score

Series 2
Target: Histone acetyltransferase KAT6A, winged helix 1, GST fusion (KAT6A, Homo sapiens, UniProt Q92794, residues 1-85)
Technique: protein binding microarray
Molecule type: double-stranded DNA, one strand shown
Sample: in vitro
Concentration: not given
Notes: 8-mer, flanks averaged, mean of 2 arrays, mostly near background
Baseline: not given
Direction: higher = stronger binding
Measurement: E-score
Construct (chain): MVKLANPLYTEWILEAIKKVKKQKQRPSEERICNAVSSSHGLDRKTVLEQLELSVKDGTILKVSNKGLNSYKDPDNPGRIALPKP
Sequence = AACAGACC; result = -0.0246
Sequence = CGGGCACC; result = 0.299
Sequence = GACTCAGA; result = -0.158

Series 3
Target: Prothrombin, mature alpha-thrombin (F2, Homo sapiens, UniProt P00734)
Technique: aptamer microarray, sandwich
Molecule type: DNA with 2'F-ANA
Sample: in vitro
Concentration: 200 nM
Notes: whole 15-mer aptamer, many near background
Added: Cy3 exosite-II aptamer, 400 nM
Direction: higher = stronger binding
Measurement: mean fluorescence intensity
Sequence: GGTTGGTGTGGTTGG
Modification = 2'F-ANA at 2 3 4 5 7 9 10 12 13 14; result = 57.1 a.u.
Modification = 2'F-ANA at 1 3 4 5 6 9 10 11 12 13 15; result = 51.2 a.u.
Modification = 2'F-ANA at 6 7 8 9 10 12 13; result = 159 a.u.
Modification = 2'F-ANA at 1 3 6 10 11 14; result = 58.4 a.u.
Modification = 2'F-ANA at 1 3 5 7 8 11 13 14; result = 168 a.u.

Further values, each from its own experiment
Molecule = PhoQ, residues 284 288 289 292 302 303 AGGCYF; target = PhoP, residues 12 14 15 18 19 SGWQI (Escherichia coli, UniProt P23836); test = Sort-seq, item: YFP reporter; test system = E. coli; conditions = PhoQ-PhoP variant library, added: 10 µM Mg2+; how to read = baseline: high Mg2+ state, higher = stronger signaling; measurement = fold induction; result = 1.37

Repeated from above (series 2):
Sequence = CGGGCACC; result = 0.299
